Measurements of several laboratories.
Protocols differ between the studies behind these lines. ± gives the spread as reported.
Organism: Escherichia coli

CC[C@H](C)[C@H](NC(=O)[C@H](CCCCN)NC(=O)CNC(=O)[C@H](CC(C)C)NC(=O)[C@@H](NC(=O)[C@H](C)NC(=O)[C@H](CCCCN)NC(=O)CNC(=O)[C@H](C)NC(=O)CNC(=O)[C@H](CCCCN)NC(=O)[C@@H](NC(=O)[C@H](CCCCN)NC(=O)[C@@H](NC(=O)[C@H](Cc1c[nH]c2ccccc12)NC(=O)[C@H](CC(C)C)NC(=O)[C@H](CCC(=O)O)NC(=O)[C@H](CCCCN)NC(=O)[C@H](CC(C)C)NC(=O)[C@@H](N)CC(C)C)[C@@H](C)O)[C@@H](C)CC)C(C)C)C(=O)N[C@@H](CCCCN)C(=O)NCC(=O)N[C@@H](CC(C)C)C(=O)N[C@@H](CC(C)C)C(=O)O has an MIC of greater than 25 µM (broth microdilution; K12; 37 °C).
CC[C@H](C)[C@H](N)C(=O)N[C@@H](CC(C)C)C(=O)NCC(=O)N1CCC[C@H]1C(=O)N[C@H](C(=O)N[C@@H](CC(C)C)C(=O)NCC(=O)N[C@@H](CC(C)C)C(=O)N[C@H](C(=O)N[C@@H](CO)C(=O)N[C@@H](CC(=O)O)C(=O)N[C@H](C(=O)N[C@@H](CC(C)C)C(=O)N[C@@H](CC(=O)O)C(=O)N[C@@H](CC(=O)O)C(=O)N[C@H](C(=O)N[C@@H](CC(C)C)C(=O)NCC(=O)N[C@H](C(=O)N[C@@H](CC(C)C)C(=O)O)[C@@H](C)CC)C(C)C)[C@@H](C)O)C(C)C)C(C)C gave an MIC of 90 µM (ATCC 25922; 24 h, 37 °C).
For N=C(N)NCCC[C@H](NC(=O)[C@H](Cc1c[nH]cn1)NC(=O)[C@@H]1CCCN1C(=O)[C@H](CS)NC(=O)CN)C(=O)N[C@@H](CS)C(=O)O, the MIC was 80 µg/mL (broth microdilution; MTCC 443; 37 °C).
With CC[C@H](C)[C@H](NC(=O)[C@@H]1CCCN1C(=O)[C@H](CCCNC(=N)N)NC(=O)[C@@H]1CCCN1C(=O)[C@@H]1CCCN1C(=O)[C@@H](NC(=O)[C@@H]1CCCN1C(=O)[C@H](CCCNC(=N)N)NC(=O)[C@@H]1CCCN1C(=O)[C@H](CC(C)C)NC(=O)[C@H](Cc1ccc(O)cc1)NC(=O)[C@H](CO)NC(=O)CNC(=O)[C@H](CCCCN)NC(=O)[C@H](CC(=O)O)NC(=O)[C@@H](N)C(C)C)[C@@H](C)O)C(=O)N[C@@H](Cc1ccc(O)cc1)C(=O)N[C@@H](CC(N)=O)C(=O)N[C@@H](CCCNC(=N)N)C(=O)N[C@@H](CC(N)=O)C(=O)O the MIC was greater than 0.6 µM (broth microdilution; BW25113, 20% M9 medium).
CC[C@H](C)[C@H](NC(=O)CNC(=O)[C@H](CCCNC(=N)N)NC(=O)[C@H](Cc1ccccc1)NC(=O)[C@@H](NC(=O)[C@H](Cc1c[nH]cn1)NC(=O)[C@H](Cc1c[nH]cn1)NC(=O)[C@H](Cc1ccccc1)NC(=O)[C@@H](N)Cc1ccccc1)[C@@H](C)CC)C(=O)N[C@H](C(=O)N[C@@H](Cc1c[nH]cn1)C(=O)N[C@H](C(=O)NCC(=O)N[C@@H](CCCCN)C(=O)N[C@H](C(=O)N[C@H](C(=O)N[C@@H](Cc1c[nH]cn1)C(=O)N[C@@H](CCCNC(=N)N)C(=O)N[C@@H](CC(C)C)C(=O)N[C@H](C(=O)N[C@H](C(=O)NCC(=O)O)[C@@H](C)O)C(C)C)[C@@H](C)CC)[C@@H](C)O)C(C)C)C(C)C has an MIC of 12.5 µM (broth microdilution; K12; 37 °C).
With CC[C@H](C)[C@H](N)C(=O)N[C@H](C(=O)N[C@@H](CCCCN)C(=O)N[C@@H](CCCNC(=N)N)C(=O)N[C@H](C(=O)N[C@@H](CC(C)C)C(=O)N[C@H](C(=O)N[C@@H](CCC(N)=O)C(=O)N[C@@H](CC(C)C)C(=O)N[C@@H](CCCCN)C(=O)N[C@@H](CCCCN)C(=O)N[C@@H](CC(C)C)C(=O)N[C@@H](CC(C)C)C(N)=O)[C@@H](C)CC)[C@@H](C)CC)[C@@H](C)CC the MIC was 12.5 µg/mL (ATCC 25922; 1 h, 37 °C, non-dividing cells in PBS).
For CC(C)C[C@H](NC(=O)[C@H](CCCNC(=N)N)NC(=O)[C@H](CC(C)C)NC(=O)[C@@H](NC(=O)[C@H](C)NC(=O)[C@H](Cc1c[nH]cn1)NC(=O)[C@H](CC(C)C)NC(=O)[C@@H](NC(=O)[C@@H](N)CO)[C@@H](C)O)C(C)C)C(=O)N[C@@H](CCCNC(=N)N)C(=O)NCC(=O)NCC(=O)O, the MIC was 5 µM (DH5α; 37 °C, ≥90% viability decrease).
The MIC of CC(C)C[C@H](NC(=O)[C@H](CCCNC(=N)N)NC(=O)[C@@H]1CCCN1C(=O)[C@H](Cc1c[nH]cn1)NC(=O)[C@@H]1CCCN1C(=O)[C@@H]1CCCN1C(=O)[C@H](CCCNC(=N)N)NC(=O)[C@@H]1CCCN1C(=O)[C@H](CCC(N)=O)NC(=O)[C@@H]1CCCN1C(=O)[C@H](CCCNC(=N)N)NC(=O)[C@H](Cc1ccc(O)cc1)NC(=O)[C@@H](NC(=O)[C@@H]1CCCN1C(=O)[C@H](CCCCN)NC(=O)[C@H](CC(N)=O)NC(=O)[C@H](CC(N)=O)NC(=O)CN)C(C)C)C(=O)O is reported as 0.096 ± 0.023 µM (JW0368 ΔsbmA; 18 h, 37 °C, 12.5% Mueller-Hinton broth).
With CC(C)C[C@H](NC(=O)[C@H](Cc1ccccc1)NC(=O)[C@H](CCCCN)NC(=O)[C@@H](N)CCCCN)C(=O)NCC(=O)N[C@@H](CCCCN)C(=O)N[C@@H](Cc1c[nH]c2ccccc12)C(=O)N[C@@H](CCCCN)C(=O)N[C@@H](CC(C)C)C(=O)N[C@@H](CCCNC(=N)N)C(=O)N[C@@H](Cc1ccccc1)C(=O)NCC(=O)N[C@@H](Cc1c[nH]c2ccccc12)C(N)=O the MIC was 12.5 µg/mL (broth microdilution; ATCC 25922, LB medium; 16 to 20 h, 37 °C).
CC[C@H](C)[C@H](NC(=O)[C@H](CCCNC(=N)N)NC(=O)[C@@H](N)CCCNC(=N)N)C(=O)N[C@@H](CCCCN)C(=O)N[C@@H](CCCCN)C(=O)N[C@@H](CCCNC(=N)N)C(=O)N1CCC[C@H]1C(=O)N1CCC[C@H]1C(=O)N[C@@H](CCCNC(=N)N)C(=O)N[C@@H](CC(C)C)C(=O)N1CCC[C@H]1C(=O)N[C@@H](CCCNC(=N)N)C(=O)N1CCC[C@H]1C(=O)N[C@@H](CCCNC(=N)N)C(=O)N1CCC[C@H]1C(=O)N[C@@H](CCCNC(=N)N)C(=O)O has an MIC of 0.078 ± 0.032 µM (broth microdilution; BW25113 parental, Mueller-Hinton broth; 18 h, 37 °C).
For CC(C)C[C@H](NC(=O)[C@H](C)NC(=O)CNC(=O)[C@H](CC(C)C)NC(=O)[C@H](CC(C)C)NC(=O)[C@H](CCCCN)NC(=O)[C@H](CCCCN)NC(=O)[C@H](CC(C)C)NC(=O)[C@H](CC(C)C)NC(=O)[C@H](CCCCN)NC(=O)[C@H](CC(C)C)NC(=O)[C@H](CC(C)C)NC(=O)[C@@H](N)CCCCN)C(=O)NCC(N)=O, the MIC was 1 µM (ATCC 25922, CAMHB; 18 h, 37 °C).
CC[C@H](C)[C@H](NC(=O)CN)C(=O)N[C@@H](CCCCN)C(=O)N[C@H](C(=O)N[C@@H](CCCNC(=N)N)C(=O)N[C@@H](CCCCN)C(=O)N[C@@H](CC(C)C)C(=O)N[C@@H](Cc1ccccc1)C(=O)N[C@@H](CCCCN)C(=O)N[C@@H](CCCCN)C(=O)N[C@@H](CC(C)C)C(=O)N[C@@H](CC(C)C)C(=O)N[C@@H](CCCNC(=N)N)C(N)=O)[C@@H](C)CC has an MIC of 50 µg/mL (ATCC 25922; 1 h, 37 °C, dividing cells in LB).
CCN1CCN(C(=O)N[C@@H](C(=O)N[C@@H]2C(=O)N3[C@@H]2SC(C)(C)[C@@H]3C(=O)O)c2ccccc2)C(=O)C1=O gave an MIC of 12.5 µg/mL (broth microdilution; BW25113, Mueller-Hinton broth).
With CC[C@H](C)[C@H](NC(=O)[C@H](CCCNC(=N)N)NC(=O)[C@@H](N)CCCNC(=N)N)C(=O)N[C@@H](CCCCN)C(=O)N1CCC[C@H]1C(=O)N[C@@H](CCCNC(=N)N)C(=O)N1CCC[C@H]1C(=O)N1CCC[C@H]1C(=O)N[C@@H](CCCNC(=N)N)C(=O)N[C@@H](CC(C)C)C(=O)N1CCC[C@H]1C(=O)N[C@@H](CCCNC(=N)N)C(=O)N1CCC[C@H]1C(=O)N[C@@H](CCCNC(=N)N)C(=O)N1CCC[C@H]1C(=O)N[C@@H](CCCCN)C(=O)O the MIC was 0.06 ± 0.014 µM (JW0368 ΔsbmA; 18 h, 37 °C, 12.5% Mueller-Hinton broth).
CC[C@H](C)[C@H](NC(=O)[C@H](CCCCN)NC(=O)[C@H](CC(C)C)NC(=O)[C@H](Cc1ccccc1)NC(=O)[C@H](CCCNC(=N)N)NC(=O)[C@H](CC(C)C)NC(=O)[C@H](Cc1ccccc1)NC(=O)[C@H](CCCNC(=N)N)NC(=O)[C@H](CO)NC(=O)[C@H](CC(C)C)NC(=O)[C@@H](N)CO)C(=O)N[C@H](C(=O)N[C@@H](Cc1ccc(O)cc1)C(=O)N[C@@H](CCCNC(=N)N)C(=O)N[C@@H](CCCNC(=N)N)C(=O)N[C@@H](C)C(=O)N[C@@H](Cc1ccccc1)C(N)=O)C(C)C gave an MIC of 25 µM (broth microdilution; K12; 37 °C).
The MIC of CC[C@H](C)[C@H](NC(=O)[C@@H]1CCCN1C(=O)[C@H](CCCCN)NC(=O)[C@@H]1CCCN1C(=O)[C@@H]1CCCN1C(=O)[C@@H](NC(=O)[C@@H]1CCCN1C(=O)[C@H](CCCNC(=N)N)NC(=O)[C@@H]1CCCN1C(=O)[C@H](CCCCN)NC(=O)[C@H](Cc1ccc(O)cc1)NC(=O)[C@H](CO)NC(=O)CNC(=O)[C@H](CCCCN)NC(=O)[C@H](CC(=O)O)NC(=O)[C@@H](N)C(C)C)[C@@H](C)O)C(=O)N[C@@H](Cc1ccc(O)cc1)C(=O)N[C@@H](CC(N)=O)C(=O)N[C@@H](CCCNC(=N)N)C(=O)N[C@@H](CC(N)=O)C(=O)O is reported as 0.075 ± 0.018 µM (JW0013; 18 h, 37 °C, 12.5% Mueller-Hinton broth).
For CC[C@H](C)[C@H](NC(=O)[C@H](Cc1ccccc1)NC(=O)CN)C(=O)N[C@@H](CCCCN)C(=O)N[C@H](C(=O)N[C@H](C(=O)N[C@@H](CCCNC(=N)N)C(=O)N[C@@H](CCCCN)C(=O)N[C@@H](CC(C)C)C(=O)N[C@@H](CC(C)C)C(=O)N[C@@H](CCCNC(=N)N)C(=O)N[C@@H](CC(C)C)C(=O)N[C@@H](Cc1ccccc1)C(N)=O)C(C)C)[C@@H](C)CC, the MIC was 6.25 µg/mL (broth microdilution; ATCC 25922, LB medium; 16 to 20 h, 37 °C).
CC[C@H](C)[C@H](NC(=O)CNC(=O)[C@H](CCCNC(=N)N)NC(=O)[C@H](Cc1ccccc1)NC(=O)[C@@H](NC(=O)[C@H](Cc1c[nH]cn1)NC(=O)[C@H](Cc1c[nH]cn1)NC(=O)[C@H](Cc1ccccc1)NC(=O)[C@@H](N)Cc1ccccc1)[C@@H](C)CC)C(=O)N[C@H](C(=O)N[C@@H](Cc1c[nH]cn1)C(=O)N[C@H](C(=O)NCC(=O)N[C@@H](CCCCN)C(=O)N[C@H](C(=O)N[C@@H](CCCCN)C(=O)N[C@@H](Cc1c[nH]cn1)C(=O)N[C@@H](CCCNC(=N)N)C(=O)N[C@@H](CC(C)C)C(=O)N[C@H](C(=O)N[C@H](C(=O)NCC(N)=O)[C@@H](C)O)C(C)C)[C@@H](C)O)C(C)C)C(C)C gave an MIC of 3.1 µg/mL (broth microdilution; ATCC 25922; 18 h, 37 °C).
